Experimental data pooled from the literature.
Lines come from different studies, so protocols differ. Several values in a cell are separate wells, animals, samples, runs or records. ± marks the error that the study gave.
U2AF2: U2AF2 148-342 (Homo sapiens, UniProt P26368)
UniProt P26368, sequence (whole entry, looked up): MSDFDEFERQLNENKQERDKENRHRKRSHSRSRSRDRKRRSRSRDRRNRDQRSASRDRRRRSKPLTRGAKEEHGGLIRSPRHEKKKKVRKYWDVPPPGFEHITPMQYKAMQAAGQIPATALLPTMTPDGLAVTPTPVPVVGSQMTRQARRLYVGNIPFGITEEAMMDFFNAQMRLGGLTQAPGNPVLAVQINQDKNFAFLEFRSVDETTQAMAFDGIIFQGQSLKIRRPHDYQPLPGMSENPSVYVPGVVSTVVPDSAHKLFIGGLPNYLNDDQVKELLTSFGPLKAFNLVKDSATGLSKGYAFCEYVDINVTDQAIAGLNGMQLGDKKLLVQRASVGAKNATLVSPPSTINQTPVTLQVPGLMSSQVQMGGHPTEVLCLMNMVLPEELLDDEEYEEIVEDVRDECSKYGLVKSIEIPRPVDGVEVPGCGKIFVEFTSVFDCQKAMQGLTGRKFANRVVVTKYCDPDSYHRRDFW
B1: human DDX42; sequence looked up; chain MNWNKGGPGTKRGFGFGGFAISAGKKEEPKLPQQSHSAFGATSSSSGFGKSAPPQLPSFYKIGSKRANFDEENAYFEDEEEDSSNVDLPYIPAENSPTRQQFHSKPVDSDSDDDPLEAFMAEVEDQAARDMKRLEEKDKERKNVKGIRDDIEEEDDQEAYFRYMAENPTAGVVQEEEEDNLEYDSDGNPIAPTKKIIDPLPPIDHSEIDYPPFEKNFYNEHEEITNLTPQQLIDLRHKLNLRVSGAAPPRPGSSFAHFGFDEQLMHQIRKSEYTQPTPIQCQGVPVALSGRDMIGIAKTGSGKTAAFIWPMLIHIMDQKELEPGDGPIAVIVCPTRELCQQIHAECKRFGKAYNLRSVAVYGGGSMWEQAKALQEGAEIVVCTPGRLIDHVKKKATNLQRVSYLVFDEADRMFDMGFEYQVRSIASHVRPDRQTLLFSATFRKKIEKLARDILIDPIRVVQGDIGEANEDVTQIVEILHSGPSKWNWLTRRLVEFTSSGSVLLFVTKKANAEELANNLKQEGHNLGLLHGDMDQSERNKVISDFKKKDIPVLVATDVAARGLDIPSIKTVINYDVARDIDTHTHRIGRTGRAGEKGVAYTLLTPKDSNFAGDLVRNLEGANQHVSKELLDLAMQNAWFRKSRFKGGKGKKLNIGGGGLGYRERPGLGSENMDRGNNNVMSNYEAYKPSTGAMGDRLTAMKAAFQSQYKSHFVAASLSNQKAGSSAAGASGWTSAGSLNSVPTNSAQQGHNSPDSPVTSAAKGIPGFGNTGNISGAPVTYPSAGAQGVNNTASGNNSREGTGGSNGKRERYTENRGSSRHSHGETGNRHSDSPRHGDGGRHGDGYRHPESSSRHTDGHRHGENRHGGSAGRHGENRGANDGRNGESRKEAFNRESKMEPKMEPKVDSSKMDKVDSKTDKTADGFAVPEPPKRKKSRWDS
B2: TGFBI FAS1-4 domain, residues 502-657 R555W (Homo sapiens, UniProt Q15582); chain AGMGTVMDVLKGDNRFSMLVAAIQSAGLTETLNREGVYTVFAPTNEAFRALPPREWSRLLGDAKELANILKYHIGDEILVSGGIGALVRLKSLQGDKLEVSLKNNVVSVNKEPVAEPDIMATNGVVHVITNVLQPPANRPQERGDELADSALEIFKQA
B3: PF1070 1-140 W108A (Pyrococcus furiosus, UniProt Q8U1Y4); sequence looked up; chain MPSSSKSDFSFSTLIIPQHYLRAILKVVSSSSVEVCGFLFGKENRVLKVRFIRNRLNSPVEFEMDPEEMLKALEEAEQENLEVVGIFHSHIACPPIPSGKDLEGMKRAPVIWLIVNEKGEYKAWILSEKNKISEVKIVVE
B4: priC (Escherichia coli, UniProt P23862); sequence looked up; chain MKTALLLEKLEGQLATLRQRCAPVSQFATLSARFDRHLFQTRATTLQACLDEAGDNLAALRHAVEQQQLPQVAWLAEHLAAQLEAIAREASAWSLREWDSAPPKIARWQRKRIQHQDFERRLREMVAERRARLARVTDLVEQQTLHREVEAYEARLARCRHALEKIENRLARLTR
B5: Per2 1-506 (Mus musculus, UniProt O54943); sequence looked up; chain MNGYVDFSPSPTSPTKEPGAPQPTQAVLQEDVDMSSGSSGNENCSTGRDSQGSDCDDNGKELRMLVESSNTHPSPDDAFRLMMTEAEHNPSTSGCSSEQSAKADAHKELIRTLKELKVHLPADKKAKGKASTLATLKYALRSVKQVKANEEYYQLLMSSESQPCSVDVPSYSMEQVEGITSEYIVKNADMFAVAVSLVSGKILYISNQVASIFHCKKDAFSDAKFVEFLAPHDVSVFHSYTTPYKLPPWSVCSGLDSFTQECMEEKSFFCRVSVGKHHENEIRYQPFRMTPYLVKVQEQQGAESQLCCLLLAERVHSGYEAPRIPPEKRIFTTTHTPNCLFQAVDERAVPLLGYLPQDLIETPVLVQLHPSDRPLMLAIHKKILQAGGQPFDYSPIRFRTRNGEYITLDTSWSSFINPWSRKISFIIGRHKVRVGPLNEDVFAAPPCPEEKTPHPSVQELTEQIHRLLMQPVPHSGSSGYGSLGSNGSHEHLMSQTSSSDSNGQEE
B6: Sting1 138-378 (Mus musculus, UniProt Q3TBT3); sequence looked up; chain LTPAEVSAVCEEKKLNVAHGLAWSYYIGYLRLILPGLQARIRMFNQLHNNMLSGAGSRRLYILFPLDCGVPDNLSVVDPNIRFRDMLPQQNIDRAGIKNRVYSNSVYEILENGQPAGVCILEYATPLQTLFAMSQDAKAGFSREDRLEQAKLFCRTLEEILEDVPESRNNCRLIVYQEPTDGNSFSLSQEVLRHIRQEEKEEVTMNAPMTSVAPPPSVLSQEPRLLISGMDQPLPLRTDLI
B7: racE (Dictyostelium discoideum, UniProt Q23862); sequence looked up; chain MSEDQGSGATRVKLVVVGDGAVGKTCLLICYAQNDFPVDYVPTVFENYTATRKRGNEDIKVHLWDTAGQEEYDRLRPLSYPGADVVLLCFSTISQSSYEAIRDKWAPEVNHYIPDVPSILVGTKIDLREQQHPDPNSGKFEPITADMGISMQKQIKAKKYLEVSAKTRQGLEEVFSAAIEIVLESRGMDKKSQDGSSSASGVPSGDKPTKGKAGKKKSGCIIL
B8: cfbA 1-143 S11L (Methanocaldococcus jannaschii, UniProt Q58380); chain MEALVLVGHGLRLPYSKELLVKLAEKVKERNLFPIVEIGLMEFSEPTIPQAVKKAIEQGAKRIIVVPVFLAHGIHTTRDIPRLLGLIEDNHEHHHEHSHHHHHHHHHEHEKLEIPEDVEIIYREPIGADDRIVDIIIDRAFGR
B9: gapA 2-331 (Escherichia coli, UniProt P0A9B2); chain TIKVGINGFGRIGRIVFRAAQKRSDIEIVAINDLLDADYMAYMLKYDSTHGRFDGTVEVKDGHLIVNGKKIRVTAERDPANLKWDEVGVDVVAEATGLFLTDETARKHITAGAKKVVMTGPSKDNTPMFVKGANFDKYAGQDIVSNASCTTNCLAPLAKVINDNFGIIEGLMTTVHATTATQKTVDGPSHKDWRGGRGASQNIIPSSTGAAKAVGKVLPELNGKLTGMAFRVPTPNVSVVDLTVRLEKAATYEQIKAAVKAAAEGEMKGVLGYTEDDVVSTDFNGEVCTSVFDAKAGIALNDNFVKLVSWYDNETGYSNKVLDLIAHISK
B10: RB1CC1 1286-1395 (Homo sapiens, UniProt Q8TDY2); chain SLVAELQEKLQEEKAKFLEQLEEQEKRKNEEMQNVRTSLIAEQQTNFNTVLTREKMRKENIINDLSDKLKSTMQQQERDKDLIESLSEDRARLLEEKKKLEEEVSKLRSS
B11: spnA dimerization element 1877-1944 (Saccharopolyspora spinosa, UniProt Q9ALM6); sequence looked up; chain ALRESSAGDMGRRVEAKFWGAVEHEDVESLARVLGIVDDGAAVDSLRSALPVLAGWQRTRTTESIMDQ
B12: CASP2 170-452 D333A/D347A/C370A (Homo sapiens, UniProt P42575); sequence looked up; chain GPVCLQVKPCTPEFYQTHFQLAYRLQSRPRGLALVLSNVHFTGEKELEFRSGGDVDHSTLVTLFKLLGYDVHVLCDQTAQEMQEKLQNFAQLPAHRVTDSCIVALLSHGVEGAIYGVDGKLLQLQEVFQLFDNANCPSLQNKPKMFFIQACRGDETDRGVDQQAGKNHAGSPGCEESAAGKEKLPKMRLPTRSDMICGYAALKGTAAMRNTKRGSWYIEALAQVFSERACDMHVADMLVKVNALIKDREGYAPGTEFHRCKEMSEYCSTLCRHLYLFPGHPPT
B13: histone H1t human; sequence looked up; chain SETVPAASASAGVAAMEKLPTKKRGRKPAGLISASRKVPNLSVSKLITEALSVSQERVGMSLVALKKALAAAGYDVEKNNSRIKLSLKSLVNKGILVQTRGTGASGSFKLSKKVIPKSTRSKAKKSVSAKTKKLVLSRDSKSPKTAKTNKRAKKPRATTPKTVRSGRKAKGAKGKQQQKSPVKARASKSKLTQHHEVNVRKATSKK
B14: TGFBI 45-632 R124H (Homo sapiens, UniProt Q15582); sequence looked up; chain GPNVCAVQKVIGTNRKYFTNCKQWYQRKICGKSTVISYECCPGYEKVPGEKGCPAALPLSNLYETLGVVGSTTTQLYTDHTEKLRPEMEGPGSFTIFAPSNEAWASLPAEVLDSLVSNVNIELLNALRYHMVGRRVLTDELKHGMTLTSMYQNSNIQIHHYPNGIVTVNCARLLKADHHATNGVVHLIDKVISTITNNIQQIIEIEDTFETLRAAVAASGLNTMLEGNGQYTLLAPTNEAFEKIPSETLNRILGDPEALRDLLNNHILKSAMCAEAIVAGLSVETLEGTTLEVGCSGDMLTINGKAIISNKDILATNGVIHYIDELLIPDSAKTLFELAAESDVSTAIDLFRQAGLGNHLSGSERLTLLAPLNSVFKDGTPPIDAHTRNLLRNHIIKDQLASKYLYHGQTLETLGGKKLRVFVYRNSLCIENSCIAAHDKRGRYGTLFTMDRVLTPPMGTVMDVLKGDNRFSMLVAAIQSAGLTETLNREGVYTVFAPTNEAFRALPPRERSRLLGDAKELANILKYHIGDEILVSGGIGALVRLKSLQGDKLEVSLKNNVVSVNKEPVAEPDIMATNGVVHVITNVL
B15: protein 1-299 W76Y (Sulfolobus tokodaii, UniProt Q96Y14); chain MMIIVGVDAGGTKTKAVAYDCEGNFIGEGSSGPGNYHNVGLTRAIENIKEAVKIAAKGEADVVGMGVAGLDSKFDYENFTPLASLIAPKVIIQHDGVIALFAETLGEPGVVVIAGTGSVVEGYNGKEFLRVGGRGWLLSDDGSAYWVGRKALRKVLKMMDGLENKTILYNKVLKTINVKDLDELVMWSYTSSCQIDLVASIAKAVDEAANEGDTVAMDILKQGAELLASQAVYLARKIGTNKVYLKGGMFRSNIYHKFFTLYLEKEGIISDLGKRSPEIGAVILAYKEVGCDIKKLISD
B16: dlg1 1-97 A8T (Drosophila melanogaster, UniProt P31007); sequence looked up; chain MPVKKQETHRALELLEDYHARLSEPQDRALRIAIERVIRIFKSRLFQALLDIQEFYELTLLDDSKSIQQKTAETLQIATKWEKDGQAVKIADFIKSS

| Substance | tested on | assay | system | setting | how to read | endpoint | result |
| --- | --- | --- | --- | --- | --- | --- | --- |
| B1 (human DDX42) | CYB5R4 knockout human cells | PP4 interaction, 3xFLAG-PP4C IP-MS |  | concentration not given | relative to: CYB5R4 KO over parental | log2 fold change | -0.49 |
| CUGCAAUUUUUUUUUUUUUAUUUUUCAUUUCCAGUA (ssRNA) | U2AF2 | MST | RNA |  |  | Kd | 5.34 ± 1.61 µM |
| B2 | itself | cross-linking |  |  |  | subunits per oligomer | 2 |
| B3 (PF1070 1-140 W108A) | itself | SEC |  |  |  | subunits per oligomer | 2 |
| AUUUUCUAA (ssRNA) | U2AF2 | sequencing of bound RNA | RNA | motif only |  | Kd | 9.21 µM |
| B4 (priC) | itself | AUC |  |  |  | subunits per oligomer | 4 and 2 |
| B5 (Per2 1-506) | itself | SEC |  |  |  | subunits per oligomer | 2 |
| B6 (Sting1 138-378) | itself | SEC |  |  |  | subunits per oligomer | 4 |
| B7 (racE) | itself | SEC |  |  |  | subunits per oligomer | 2 |
| B8 (cfbA 1-143 S11L) | itself | SEC |  |  |  | subunits per oligomer | 2 |
| B9 (gapA 2-331) | itself | SEC |  |  |  | subunits per oligomer | 4 |
| B10 (RB1CC1 1286-1395) | itself | X-ray crystallography |  |  |  | subunits per oligomer | 2 |
| B11 | itself | AUC |  |  |  | subunits per oligomer | 2 |
| B12 | itself | SEC |  |  |  | subunits per oligomer | 2 |
| B13 (histone H1t human) | CYB5R4 knockout human cells | PP4 interaction, 3xFLAG-PP4C IP-MS |  | concentration not given | relative to: CYB5R4 KO over parental | log2 fold change | -0.46 |
| VSRVSREELEDRFLRLHDENILLKQHARKQEDKIKRMATKLIRLVNDKKRYERVGG (Rpgrip1l 42-97 (Mus musculus, UniProt Q8CG73); sequence looked up) | itself | SEC-MALS |  |  |  | subunits per oligomer | 2 |
| B14 (TGFBI 45-632 R124H) | itself | SEC |  |  |  | subunits per oligomer | 2 |
| B15 (protein 1-299 W76Y) | itself | non-reducing SDS-PAGE |  |  |  | subunits per oligomer | 2 |
| B16 (dlg1 1-97 A8T) | itself | SEC |  |  |  | subunits per oligomer | 2 |
| RNJ fragment (Arabidopsis thaliana) (sequence not shown) | itself | SEC |  |  |  | subunits per oligomer | 4 |

Excerpt of the above:
| Substance | tested on | assay | system | setting | how to read | endpoint | result |
| --- | --- | --- | --- | --- | --- | --- | --- |
| B1 (human DDX42) | CYB5R4 knockout human cells | PP4 interaction, 3xFLAG-PP4C IP-MS |  | concentration not given | relative to: CYB5R4 KO over parental | log2 fold change | -0.49 |
